Published values of several laboratories.
Parts stem from different laboratories: compare values within a part only. Changes are numbered by the printed parent chain.

Set 1 — technique: RNA Bind-n-Seq; form: RNA; medium: in vitro; concentration: not given; reference: input RNA pool; reading: higher = stronger binding; quantity: bound/input enrichment
Target: RING finger protein unkempt homolog, zinc fingers 1-6, GST-SBP tag (UNK, Homo sapiens, UniProt Q9C0B0, residues 30-357)
Chain of UniProt Q9C0B0 (30-357, looked up): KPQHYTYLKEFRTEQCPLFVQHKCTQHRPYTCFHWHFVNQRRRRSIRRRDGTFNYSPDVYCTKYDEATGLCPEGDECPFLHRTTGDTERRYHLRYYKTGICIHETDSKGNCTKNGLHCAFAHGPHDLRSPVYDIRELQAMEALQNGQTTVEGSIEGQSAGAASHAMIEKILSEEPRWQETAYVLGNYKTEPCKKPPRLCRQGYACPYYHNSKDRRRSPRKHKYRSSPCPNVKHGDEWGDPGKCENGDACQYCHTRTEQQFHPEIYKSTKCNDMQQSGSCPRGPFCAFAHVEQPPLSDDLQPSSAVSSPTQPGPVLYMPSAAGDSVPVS
Notes: RNA with constant flanks, human and mouse sites, ends assumed
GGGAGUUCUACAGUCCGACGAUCGGCAGUGGCUGGGGAGGUGAGGGAGGGGGGGCAUUCGCUUUUGGGGGCACCUCAGGUGCCUAGGUUUUCCUUUAGGUUUGUUCUAUCCGAGACGCGGGACUCCCGGGGCCCGGCUCAAGUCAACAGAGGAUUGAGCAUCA: 5.19 ratio
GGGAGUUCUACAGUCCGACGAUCGCAGUUCGCAGAACAGAAACUGGACGCAUCGGAUUAGAAGGCUGCCUUUGUCAAGACUUUUAUAGGAUACGAGACCUUUUAUAUGAACAGUAUGCCAUUGUGUAAAGGACAUGAUGUCAACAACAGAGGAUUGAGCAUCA: 0.182 ratio
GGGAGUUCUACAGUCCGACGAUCGUUGCCUACAUGUCCCUGGCUGUUGAGGCGCUGCUUCAGCCUGCACCCCUCCCUUGUCUCAUAGAUGCUCCUUUUGACCUUUUCAAAUAAAUAUGGAUGGCGAGCUCCUAGGCCUCUGGCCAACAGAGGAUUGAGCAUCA: 0.238 ratio
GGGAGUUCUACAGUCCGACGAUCUUUCACCUUCUCCCGGGUCAGCACACACAGAUUUGGGAGUAUUUACCUGCACAGAACGCACCUUCAGGAACUGCCAACCAGAAGCAAAAUCCAAAGCUGCUCUCUGCGAUCCCUUCACUUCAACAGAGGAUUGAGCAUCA: 0.159 ratio
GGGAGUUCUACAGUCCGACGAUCUGGCAUCUCUUUCCUCCUGAAGAUACUCCUUUCCUUUAUCCAACUAGAAUCCCUUAUGAAGAAUCUAGUGUGUUCAGUAAAAUCAAUGUUGUCAAUCCUGAUUUAAAGCGUUUUCCUCAGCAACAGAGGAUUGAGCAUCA: 0.519 ratio
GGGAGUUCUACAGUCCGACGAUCCUGAUGCAGUUGCUGGAUGAGGCGCUAACGGAGGUGGACCAGAUUGAACUGAAACUGAGCAGUUACGAGGAGAUGCUCCAAAGUGUGAAAGAGCAGAUGGAUCAGAUCUCUGAGAGCAACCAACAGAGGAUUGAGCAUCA: 0.202 ratio
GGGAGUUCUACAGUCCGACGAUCACAGCUCUCAUUCAAAGGAACUAGAAGCCUCUCCCUCAGUGGUAGGGAGACAGCCAGGAGCGGUUUUCUGGGAACUGUGGGAUGUGCCCUUGGGGGCCCGAGAAAACAGAAGGAAGAUGCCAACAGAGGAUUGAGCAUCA: 0.375 ratio
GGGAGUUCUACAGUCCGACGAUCGGAGACUUAGAGCUGCAGCCCAUCCGGAGCUACGAAAUCACCAGUCUGGUCCGUGCACUCUUCCGGCUGUCCUCUGCCAUCAACCGUAGAUUUGCAGGCCAGAUGGCAGCUCUGUGCUCCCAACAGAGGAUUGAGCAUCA: 0.138 ratio
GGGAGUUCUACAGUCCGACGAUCCUUAUGGCUGCAGAAACAGGAAGUGGCAAAACUGGUGCUUUUAGUAUUCCAGUUAUCCAGAUAGUUUAUGAAACUCUGAAAGACCAACAGGAAGGCAAAAAAGGAAAAACAACAAUUAAACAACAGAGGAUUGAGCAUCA: 0.632 ratio
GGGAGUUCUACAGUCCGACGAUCUGUGGCUGAGGACUUUGUACAUUGUUUUGUUUUUUUUUUUUUUUGGUUUUGUCUUUUUUUAAUAGUCAUUCCAAGUAUCCAUGAAAUAAGUGGUUACAGGAAGUCCCUCACCCUCCCAAACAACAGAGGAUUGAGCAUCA: 2.93 ratio
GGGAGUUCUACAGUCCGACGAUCUCUGAUGGGGACCAUCAGGUUCCAACUACUGCAGGAAACAAAGCAGCUCUUUUAGAUCAAAUUAGAGAGGGUGCUCAGCUAAAAAAAGUGGAGCAGAACAGUCGGCCAGUGUCCUGCUCUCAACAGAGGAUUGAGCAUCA: 1.92 ratio

Set 2 — target: UBE2H UBC core domain (UniProt P62256); technique: yeast two-hybrid; medium: yeast; notes: mostly zero background; reference: not given; reading: higher = stronger interaction; quantity: lacZ reporter activity
Chain of UniProt P62256 (whole entry, looked up): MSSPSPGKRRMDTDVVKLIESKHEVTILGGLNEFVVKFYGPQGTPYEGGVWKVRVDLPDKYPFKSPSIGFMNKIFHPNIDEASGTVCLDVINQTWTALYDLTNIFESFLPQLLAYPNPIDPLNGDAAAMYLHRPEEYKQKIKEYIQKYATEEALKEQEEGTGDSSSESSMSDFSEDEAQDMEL
B1: TRIM13 RING domain (UniProt O60858); chain MELLEEDLTCPICCSLFDDPRVLPCSHNFCKKCLEGILEGSVRNSLWRPAPFKCPTCRKETSATGINS
B2: RNF208 RING domain (UniProt Q9H0X6); chain SSAAAGEPLECPTCGHSYNVTQRRPRVLSCLHSVCEQCLQILYESCPKYKFISCPTCRRETVLFTDYG
B3: RNF38 RING domain (UniProt Q9H0F5); chain PNNHQSEQTLCVVCMCDFESRQLLRVLPCNHEFHAKCVDKWLKANRTCPICRADASEVHRDS
B4: TRIM43 RING domain (UniProt Q96BQ3); chain FSHAFQKELTCVICLNYLVDPVTICCGHSFCRPCLCLSWEEAQSPANCPACREPSPKMDFKT
B5: MKRN1 RING domain (UniProt Q9UHC7); chain FAVQRSKDMVCGICMEVVYEKANPSERRFGILSNCNHTYCLKCIRKWRSAKQFESKIIKSCPECRITSNFVIPSE
B6: DTX4 RING domain (UniProt Q9Y2E6); chain QKVRHPPDEDCTICMERLTAPSGYKGPQPTVKPDLVGKLSRCGHVYHIYCLVAMYNNGNKDGSLQCPTCKTIYGVKTGTQ
B1 (TRIM13 RING domain): 0
FQGDVDEDLICPICSGVLEEPVQAPHCEHAFCNACITQWFSQQQTCPVDRSVVTVAHLRP (RNF41 RING domain (UniProt Q9H4P4)): 0
B2 (RNF208 RING domain): 0
B3 (RNF38 RING domain): 0
B4 (TRIM43 RING domain): 0
B5 (MKRN1 RING domain): 0
B6 (DTX4 RING domain): 0

Set 3 — target: CCNB1, cyclin fold, Cln2 fusion (human); technique: yeast growth competition, sequencing; medium: yeast; notes: strong parent motif; reference: not given; reading: higher = stronger binding; quantity: normalised enrichment score
Starting sequence: RBL2 docking peptide (human); STTRRRLFVENDS
STTRLRLFVENDS [R5L]: 0.671
STTRRRLFVGNDS [E10G]: 0.18
STTHRRLFVENDS [R4H]: 0.169
STTCRRLFVENDS [R4C]: 1.79
STTRRRLFVENKS [D12K]: 0.902
STTRRRLFVEIDS [N11I]: 0.631
STTRRRLFVEPDS [N11P]: 1.01
STTRRRLFQENDS [V9Q]: 0.152
STTRRRLFVENVS [D12V]: 0.309
STTRRRLPVENDS [F8P]: -0.0355
SNTRRRLFVENDS [T2N]: 0.821
STTRRRMFVENDS [L7M]: 0.801
STTGRRLFVENDS [R4G]: -0.109
STTRRRLFVEFDS [N11F]: 0.96
STTRRRLFVENMS [D12M]: 0.499
STTRRRLFVEVDS [N11V]: 1.07
STTRRRLFVENDW [S13W]: 2.04
STTRRRLFWENDS [V9W]: 1.41
STTRRRLFVENRS [D12R]: 0.907
STTRRRLFVKNDS [E10K]: 0.455
STTRRRLIVENDS [F8I]: 0.359
ETTRRRLFVENDS [S1E]: 0.48

Set 4 — technique: RNA Bind-n-Seq; form: RNA; medium: in vitro; concentration: 365 nM; reference: no-protein control; reading: higher = stronger binding; quantity: RBNS enrichment (R)
Target: RNA binding protein fox-1 homolog 2, RRM domain, GST-SBP tag (RBFOX2, Homo sapiens, UniProt O43251-10, residues 100-194)
Notes: natural RNA segment, single round, ends assumed
Target sequence (chain): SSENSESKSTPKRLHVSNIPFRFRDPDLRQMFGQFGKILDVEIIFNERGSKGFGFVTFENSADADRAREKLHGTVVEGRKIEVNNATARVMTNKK
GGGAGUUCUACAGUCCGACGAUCUCAGUAUCUUUUCCAGUGUUUGCUACCUAAGAUCCCAUUGGGGUAAAAAUAUAACUCAGAUUUCACUGUUAGGAAUAGUUCUGUUUGUGAGCAACUUACUUCCUUUCAUCUGGAAUUCUCGGGUGCCAA: 1.18
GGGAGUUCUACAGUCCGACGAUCCACAGAGGCCCAGCCCCAGCAUCACCUCCAGGACCCCAGCUGCUCUAAGUCCAGGACCUCUACCCUGAGGACUCAGCCCUUAGCUCUGGAGAAGGAACAUAUUUGAUAGAUGGAAUUCUCGGGUGCCAA: 0.282
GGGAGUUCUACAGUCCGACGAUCGGGUUUUUUGCGUCCUUUUGGAAUCACAGAAAUAAACAAGUAGGUUUCAGUUGUCUUCAGAGACAAAUGUUACUUAAUCAGGAAUACAAAGUACAGAUUUUUUACAUUUUUGGAAUUCUCGGGUGCCAA: 0.474
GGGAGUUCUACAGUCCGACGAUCGGUGAUGGGCUUUGUGCCCACUCCAGAGAUAUUGUGGGAGACAAAUUCUUUUAACAGCCUGUCCUCCCGGCAUCAGGAGUCAUUGAACAAUCAUGGAUUGUUGUGUUUGGUGGAAUUCUCGGGUGCCAA: 0.616
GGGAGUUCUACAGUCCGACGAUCUUUAGAAGAAUGCAUUCAAGGAUUCUUUUCCUUUCCUUCAGUGUCAUUAAUGUUAAAAGAGCAGCCACUGUUUUGUUGAAACAAACAGCUUAACUUCAGAAAUAAGAACUUGGAAUUCUCGGGUGCCAA: 0.241
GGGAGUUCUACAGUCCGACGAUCGCUGUCACCGUCUCCUCUUAAGCUCACUCGGGCCAGGCCCUGAUCUGCGCUGUGGCUGUCCCUGGACGUGCUGCAGCCCUCCUGUCCCUUCCCCCCAGUCAGUAUUACCCUGGAAUUCUCGGGUGCCAA: 0.316
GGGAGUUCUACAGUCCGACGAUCGACUUUCCAAAGAACCCUUAAGUUUCCAUUUCCCAGUGGCAAUAACUGUGACCUGAUCCCUACCCCACAUGCUGUCUCCUUUUCUUUGGGAGUUAGCAACAUUUGAGGAUUGGAAUUCUCGGGUGCCAA: 0.385
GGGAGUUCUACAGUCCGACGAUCGGUCCCUUUUGUGUCUCCCCCGCCAUUCAAGGACUCCUCUCUUUCUUCACCAAGAAGCACAGAAUUCUGCUGGGCCUUUGCUUGUUUAUUUUGUUUCCCGACUCUUCUCUUGGAAUUCUCGGGUGCCAA: 0.8
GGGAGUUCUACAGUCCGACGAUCUAGAGAGUUUGUGGGGAUCUCUUCUGAGUACCCCAGGACUUGGGAAAUAAUGCAAGAGUAUCCCUUUCAGUACAUAGGUAAGCUUGGCUAUGUUCAAUAUGGCAGAGCCAUGGAAUUCUCGGGUGCCAA: 1.35
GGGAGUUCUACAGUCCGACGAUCACAAAAUGUAAUUCCGGUUAUUUAAGUCAUUUCUGUGAUUCUAUCAUGUACAGUUUCCAGAAUUGUCACUGUGCAUUCAAAAGUAAUGAAUCUAACAGACAUUUGAUUUAUGGAAUUCUCGGGUGCCAA: 0.349
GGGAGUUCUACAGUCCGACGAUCUAUAAAGAUGUUCAUAUUUUAGGAAUAUUUGCAUAACUCAAGUGGAUAAAACAUUAAAAUGAAAACCAGUUUUUCAGGAUGCAUAGGUAAGGAAUGAUUGCUAUAUUAUAUGGAAUUCUCGGGUGCCAA: 0.954
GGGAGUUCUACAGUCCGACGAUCUACAUAUGGAUGAAAAUGAAUCUUAGUCACUGAAUAUUCAUAUACAUUUCCCCCAAAACCUUAGACAUUCAUAGUAGAUUUUAAUUAGUUAGCUUUCUAACUAGUCAGAUUGGAAUUCUCGGGUGCCAA: 0.432
